# Experimental data pooled from the literature.
# Numbers after ± are the reported error.
# B1: LY96 LOS-bound (Homo sapiens, UniProt Q9Y6Y9); sequence looked up; chain QKQYWVCNSSDASISYTYCDKMQYPISINVNPCIELKRSKGLLHIFYIPRRDLKQLYFNLYITVNTMNLPKRKEVICRGSDDDYSFCRALKGETVNTTISFSFKGIKFSKGKYKCVVEAISGSPEEMLFCLEFVILHQPNSN
# B2: acpP (Escherichia coli, UniProt P0A6A8); phosphopantetheine crosslinker on serine; sequence looked up; chain MSTIEERVKKIIGEQLGVKQEEVTNNASFVEDLGADSLDTVELVMALEEEFDTEIPDEEAEKITTVQAAIDYINGHQA
# B3: FGL1 fibrinogen-like domain 58-312 (Homo sapiens, UniProt Q08830); sequence looked up; chain NEVQFLDKGDENTVIDLGSKRQYADCSEIFNDGYKLSGFYKIKPLQSPAEFSVYCDMSDGGGWTVIQRRSDGSENFNRGWKDYENGFGNFVQKHGEYWLGNKNLHFLTTQEDYTLKIDLADFEKNSRYAQYKNFKVGDEKNFYELNIGEYSGTAGDSLAGNFHPEVQWWASHQRMKFSTWDRDHDNYEGNCAEEDQSGWWFNRCHSANLNGVYYSGPYTAKTDNGIVWYTWHGWWYSLKSVVMKIRPNDFIPNVI
Molecule,partner,assay,test system,setting,how to read,quantity,result
SKA1 fragment (Homo sapiens) (sequence not shown),TUBA1B/TUBB2B taxol-stabilized microtubules,co-sedimentation,,"KCl 75 mM, apparent",,Kd,2500 nM
"JIP-1 peptide fragment L150R, 6-aminohexanoyl linker to inverted TAT","Mapk14 (Mus musculus, UniProt P47811-1)","D-site substrate peptide phosphorylation, inhibitor, in vitro kinase assay",,"10 nM, control peptide, point mutant, added: substrate peptide 10 µM",,IC50,447000 nM
Retatrutide,"GLP1R (Homo sapiens, UniProt P43220)","β-arrestin-2 recruitment, BRET",HEK293T,,"baseline: GLP-1, higher = stronger response",maximal response,58 % GLP-1
B1 (LY96 LOS-bound),"Tlr4 (Mus musculus, UniProt Q9QUK6)",radioligand binding,HEK293 expressing TLR4,"30 min, pH 7.4, 37 °C, Scatchard analysis, in cells",,Kd,0.572 ± 0.015 nM
"protein (Streptomyces exfoliatus, UniProt O87916)",PBP2a residues 41-end (Staphylococcus aureus),ITC,,,,Kd,244 nM
B2 (acpP),"fabF (Escherichia coli, UniProt P0AAI5)",cross-linking,,"1 h, pH 7.0, 37 °C",,binding,binds
Z13e1 Fab (human),env peptide residues 668-683 (HIV-1),ITC,,"303 K, single-site model",,ΔH,-15.7 kcal/mol
B3,LAG3 extracellular domain (Homo sapiens),SPR,,20 °C,,Kd,3200 nM
DkTx (UniProt P0CH43),"Trpv1 A657P (Rattus norvegicus, UniProt O35433)",channel activation,,,"baseline: wild type channel, higher = weaker potency",potency drop,100 fold

# A few entries again:
Molecule,partner,assay,test system,setting,how to read,quantity,result
DkTx (UniProt P0CH43),"Trpv1 A657P (Rattus norvegicus, UniProt O35433)",channel activation,,,"baseline: wild type channel, higher = weaker potency",potency drop,100 fold
